Assay results of several laboratories.
A part holds a random share of what one study measured. Positions count from the first letter of the parent shown.

Study 1
Target: UBE2D3 UBC core domain (UniProt P61077)
Method: yeast two-hybrid
Matrix: yeast
Notes: mostly zero background
Reference: not given
Direction: higher = stronger interaction
B1: TRIM11 RING domain (UniProt Q96F44); chain LSTNLQEEATCAICLDYFTDPVMTDCGHNFCRECIRRCWGQPEGPYACPECRELSPQRNLRP
B2: VPS8 RING domain (UniProt Q8N3P4); chain TRGLNPKQDYCSICLQQYKRRQEMADEIIVFSCGHLYHSFCLQNKECTVEFEGQTRWTCYKCSSSNKVGKLSE
B3: RNF186 RING domain (UniProt Q9NXI6); chain HSGSTECDLECLVCREPYSCPRLPKLLACQHAFCAICLKLLLCVQDNTWSITCPLCRKVTAVPGGLI
B4: RNF6 RING domain (UniProt Q9Y252); chain NSIDSELGKICSVCISDYVTGNKLRQLPCMHEFHIHCIDRWLSENCTCPICRQPVLGSNIAN
B5: MARCHF1 RING domain (UniProt Q8TCQ1); chain TAPRSQSRLSVCPSTQDICRICHCEGDEESPLITPCRCTGTLRFVHQSCLHQWIKSSDTRCCELCKYDFIMETKLKPLRKWE
B6: MKRN3 RING domain (UniProt Q13064); chain FAVQRGMDKVCGICMEVVYEKANPNDRRFGILSNCNHSFCIRCIRRWRSARQFENRIVKSCPQCRVTSELVIPSE
B7: ZMYND11 RING domain (UniProt Q15326); chain DEIDWETENHDWYCFECHLPGEVLICDLCFRVYHSKCLSDEFRLRDSSSPWQCPVCRSIKKKNTNKQEM
Residues (chain): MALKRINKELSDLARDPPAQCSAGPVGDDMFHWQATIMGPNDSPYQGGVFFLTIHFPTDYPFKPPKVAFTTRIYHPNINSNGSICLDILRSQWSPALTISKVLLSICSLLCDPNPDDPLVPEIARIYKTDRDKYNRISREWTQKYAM
Sequence	lacZ reporter activity
B1 (TRIM11 RING domain)	0
B2 (VPS8 RING domain)	0
B3 (RNF186 RING domain)	8330
B4 (RNF6 RING domain)	0
B5 (MARCHF1 RING domain)	0
B6 (MKRN3 RING domain)	0
ASPKIFQKTKCSICNSALELPSVHFLCGHSFHQHCFESYSESDADCPTCLPENRKVMDMI (VPS11 RING domain (UniProt Q9H270))	0
B7 (ZMYND11 RING domain)	0

Study 2
Target: HLA class I histocompatibility antigen, A alpha chain, allele A*25:01 (Homo sapiens, UniProt P04439)
Effect on: peptide-MHC binding
Molecule type: peptide
Tested at: concentration not given
Sequence	binding
TEAEKWPFF	inactive
KLLARFLFE	inactive
FPASHMATY	active
KLHCTERSL	inactive
DELWRGLLA	inactive
LVAPHMAMM	inactive
NAMGADYYA	inactive
GIADFIIFK	inactive

Study 3
Target: CCND3, cyclin fold, Cln2 fusion (human)
Method: yeast growth competition, sequencing
Matrix: yeast
Notes: weak parent motif
Reference: not given
Direction: higher = stronger binding
Starting sequence: viral docking peptide; YKVKRRLVFGADD
Substitution	normalised enrichment score
F9W	0.742
R5A	0.276
K4R	0.472
R6V	0.17
V8L	0.119
D12N	0.358
G10N	0.378
K4A	0.209

Other studies, line by line
SMILES	organism	test	setting	scale	quantity	result
O=C(O)CCCc1ccc(N(CCCl)CCCl)cc1	Sarcocystis neurona	parasite growth	10 µM, 96 h, second screen	reference: untreated	log2 fold change	0.15
